Measurements gathered from unrelated publications.
Numbered parts are unrelated; each lists some results of a single study.

Set 1
Target: RNA binding protein fox-1 homolog 2, RRM domain, GST-SBP tag (RBFOX2, Homo sapiens, UniProt O43251-10, residues 100-194)
Method: RNA Bind-n-Seq
Molecule type: RNA
Sample: in vitro
Concentration: 365 nM
Notes: natural RNA segment, single round, ends assumed
Relative to: no-protein control
Reading: higher = stronger binding
Target sequence (chain): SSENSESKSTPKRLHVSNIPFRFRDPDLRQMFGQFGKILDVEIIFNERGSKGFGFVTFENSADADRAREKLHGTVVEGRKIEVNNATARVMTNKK
`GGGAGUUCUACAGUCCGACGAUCUUUCUUUUCUCCAGUCCUCACAAAUACAGAAACAAUAACUGAAAUUAACUUUUCUUUUUUUAAAAAAAAUUAUAUUCAGUUUGCAGUAGACAUUCCUUAAGUAUUUGUAUUGGAAUUCUCGGGUGCCAA`: “RBNS enrichment (R)” 0.777.
For `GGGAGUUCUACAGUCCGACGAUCGUCUGUGGUGUGGAGAGGGUGUUCACUGUGUAAUCUUGGGCUGUGUGGAGUUGUUCUUAUCACCUUGCUUCAGAUGUUACUUUGGCGUCCUCCACCAGUUCUCCAUGCGCUGGAAUUCUCGGGUGCCAA`, “RBNS enrichment (R)” read 0.453.
`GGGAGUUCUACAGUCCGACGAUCCUGCUCCUCCAGGCUGUAUAGACCUGCCCUCUUGCAUUAAACAACUUCUCUUGAGCUGCAACUUUCAGCCAAGCCCAGCAACCUCUUUGCAUACCUAAGGCCAGUUCCCUUGGAAUUCUCGGGUGCCAA`: “RBNS enrichment (R)” 2.18.
For `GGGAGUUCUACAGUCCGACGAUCCCCUGGGAAUUUCUAUCCAUUUUAAAUGCUGCCGCUUUCAUCUGUUUAGCCAGCACACCCAAUGGUUUCACUAACUAGCCCAGUUGACCUUUUUGAAGUUUGAGCCUUGAUGGAAUUCUCGGGUGCCAA`, “RBNS enrichment (R)” read 0.475.
Under “RBNS enrichment (R)”, `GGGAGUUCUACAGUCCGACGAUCCUGACUCCUUCAGGGUGCUCUUGAUGGGCUGGCUGUAAGGGAGACUCAGUCCCAGCCUCUCCCCUCUACAACUCCUGCCACUGUUGGCCAUGUCGUAAGGCAGCAGCUGUUGGAAUUCUCGGGUGCCAA` is recorded as 0.335.
For `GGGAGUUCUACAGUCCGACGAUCUGACUCCCUAAGUGUACAAGUUGGGAAUAGUACAGGGCCAAGUUCAAGUCGCAUAUGCUGUACUGUUCCUCCUGCAAAUGUGGGGAAAGAAGAGGGAGAUACUAGAGGAAUGGAAUUCUCGGGUGCCAA`, “RBNS enrichment (R)” read 1.92.
`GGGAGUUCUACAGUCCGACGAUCGCCCUCUUUAUUUUGUUGUUUGUUUCUCCAGAGAGUAAACGCUUUGUAGUUCUUUCUUUAAAAAACAUUUUUUUUAAAGAAGAAGAAGCCACUUGAACCCUCAAUAAAGGUGGAAUUCUCGGGUGCCAA`: “RBNS enrichment (R)” 0.516.
Under “RBNS enrichment (R)”, `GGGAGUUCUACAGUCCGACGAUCGAGUAGAGUAGCUUUUUUAUUCUUAGAUUAUAGUGAUAUUCUGUAGUGCUUCAAAUACUUAGAAUUCUAAUAUGAGAGAUAGUUUAAUAUUCUGGAAUAGAGAGUAUUUUUGGAAUUCUCGGGUGCCAA` is recorded as 0.558.

Set 2
Target: Histone acetyltransferase KAT6A, winged helix 2, GST fusion (KAT6A, Homo sapiens, UniProt Q92794, residues 85-181)
Method: protein binding microarray
Molecule type: double-stranded DNA, one strand shown
Sample: in vitro
Concentration: not given
Notes: 8-mer, flanks averaged, mean of 2 arrays, mostly near background
Relative to: not given
Reading: higher = stronger binding
Construct (chain): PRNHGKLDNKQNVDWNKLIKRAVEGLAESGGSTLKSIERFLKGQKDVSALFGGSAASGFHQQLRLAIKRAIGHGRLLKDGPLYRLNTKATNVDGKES
`AAGTGTCC` has an E-score of -0.101.
`CCTGCCCG` gave an E-score of 0.188.
With `TGCGGAAA` the E-score was 0.0649.
For `CGGTCCTA`, the E-score was -0.132.
For `GGCTGTAC`, the E-score was 0.0066.
With `AATTAACC` the E-score was 0.162.
The E-score of `GAGGTGTA` is reported as -0.273.
With `GAAAGAAC` the E-score was 0.088.
`CACTCCAA` has an E-score of 0.0187.
The E-score of `GTCCACCA` is reported as -0.0166.
`CGTGTCTA` gave an E-score of 0.0784.
`CTTTTTGA` has an E-score of -0.0321.
`ATCCCGTG` has an E-score of -0.0553.
For `AGCGGCCT`, the E-score was 0.107.
With `AACTCAAC` the E-score was 0.0442.
`ACTCACAA` gave an E-score of -0.0146.
`AGTGAAAT` has an E-score of 0.0353.
`AGACATAC` has an E-score of -0.0481.
With `AGGATGGC` the E-score was 0.0779.
The E-score of `CCTCTCTC` is reported as -0.16.
For `TCCGGTCA`, the E-score was -0.047.

Set 3
Target: RING finger protein unkempt homolog, zinc fingers 1-6, SBP tag (UNK, Homo sapiens, UniProt Q9C0B0, residues 30-357)
UniProt Q9C0B0, sequence (30-357, looked up): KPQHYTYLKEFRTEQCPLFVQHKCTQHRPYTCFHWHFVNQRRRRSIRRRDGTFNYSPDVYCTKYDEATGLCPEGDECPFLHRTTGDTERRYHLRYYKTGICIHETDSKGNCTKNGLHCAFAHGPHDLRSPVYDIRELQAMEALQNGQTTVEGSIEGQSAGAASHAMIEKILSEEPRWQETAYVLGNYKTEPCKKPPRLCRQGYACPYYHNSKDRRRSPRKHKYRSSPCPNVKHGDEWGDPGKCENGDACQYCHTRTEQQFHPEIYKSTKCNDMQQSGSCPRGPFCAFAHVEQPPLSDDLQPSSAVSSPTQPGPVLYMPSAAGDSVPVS
Method: RNA Bind-n-Seq
Molecule type: RNA
Sample: in vitro
Concentration: 100 nM
Notes: RNA with constant flanks, vertebrate orthologous sites, ends assumed
Relative to: input RNA pool
Reading: higher = stronger binding
The bound/input enrichment of `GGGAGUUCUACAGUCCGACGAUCUCCUUUUAGGAUGAAGCUGUUACACCAGGUAUCACGGGUCUGGAAAACAGAUGGCUUAUCGAGUUGUUCUUACAGAUUACUCUCUGUGGAGCACAAUCCUUUAUAUACUAACAUCACAGUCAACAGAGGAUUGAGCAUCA` is reported as 1.16 ratio.
`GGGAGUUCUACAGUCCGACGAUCGUUGUGACCCAUUUAACAUACACAAGAAAUUAGCCAAAAAAAAUUUGCAUGUAAUUGACUUAGAUGAUGCCACUUUUCUGAGUGCUAAAUUUGGAAGACAGCUUGUACCUGGUUGGAAGCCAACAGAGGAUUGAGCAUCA` has a bound/input enrichment of 1.35 ratio.
The bound/input enrichment of `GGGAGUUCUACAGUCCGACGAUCAAGAUGGUGGUUGUACAUUACUUCAUUUAGAAAAUAUAAAAAUACAUUUUGUUUUGAAGCUAGGUGUUAAACUGGAGUAGCUAUAUUAUACCCCUAGAGAAUGGGGCAGUUGUGCCCUUCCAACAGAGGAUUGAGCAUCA` is reported as 2.13 ratio.
With `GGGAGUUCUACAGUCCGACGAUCAUCAUGGACGCUCUUUACCUCCUCAGUGAGGUGGAGUCUCCCUCAGCAUAUGGUGGGCCCCAGAGCUGCUCAGACCUGAUACAUCUUUCCACAUUUUAUUUCUUUCACUCUCACAGUCAGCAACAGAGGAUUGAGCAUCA` the bound/input enrichment was 0.552 ratio.
With `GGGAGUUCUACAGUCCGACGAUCAAACCUAUAUCGUGGCAUAUAGUCAACAUGGAAGUAGACCAGCUCUGCCGACGUGGAAAUUUAGAUUUUUUUAAUUACGUACUGGGGACAGGUCUUUGUCGCUUUACAUUGCUUCCUAGUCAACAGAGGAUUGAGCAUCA` the bound/input enrichment was 3.99 ratio.
With `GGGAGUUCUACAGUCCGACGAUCUUUUAAAGUUUUUUUUUUAAUUUAAUUUUUCCUUUUGGGGGUAAAGUUUGCUCUACCAAAUAGUGAUCGUAACAAAUUGAUCUGUUUUGGAUGUUGCUAUAGUGACAUGCAGUUAUAUAUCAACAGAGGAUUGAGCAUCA` the bound/input enrichment was 0.712 ratio.
`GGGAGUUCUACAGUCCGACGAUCGUUGUGACCCAUUUAACAUACACAAAAAACUAGCCAAAAAAAAUUUGCAUGUGAUUGACUUAGAUGAUGCCACCUUCCUGAGUGCAAAAUUUGGAAGACAGCUUGUACCUGGUUGGAAGCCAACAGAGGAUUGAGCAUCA` gave a bound/input enrichment of 1.52 ratio.
The bound/input enrichment of `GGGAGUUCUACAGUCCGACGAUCGUUGUGACCCAUUUAAUGAGCACAGAAAAUUAUCAAAGAAAAAUUUACGUGCAAUUGACUUACAUGAUGCAACUUUUCUAAGUGCCAAGUUUGGAAGACAGUUUGUACCUGGCUGGAAGCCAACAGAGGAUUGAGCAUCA` is reported as 0.703 ratio.

Set 4
Target: Prothrombin, mature alpha-thrombin (F2, Homo sapiens, UniProt P00734)
Method: aptamer microarray, sandwich
Molecule type: DNA with 2'F-ANA
Sample: in vitro
Concentration: 200 nM
Notes: whole 15-mer aptamer, many near background
Together with: Cy3 exosite-II aptamer, 400 nM
Reading: higher = stronger binding
Sequence: GGTTGGTGTGGTTGG
For `2'F-ANA at 4 6 7 8 10 12`, “mean fluorescence intensity” read 126 a.u.
`2'F-ANA at 2 4 5 7 12` — result for “mean fluorescence intensity”: 135 a.u.
`2'F-ANA at 4 5 8 10 11 15`: “mean fluorescence intensity” 59.6 a.u.
`2'F-ANA at 1 2 3 6 10 15` — result for “mean fluorescence intensity”: 59.7 a.u.
For `2'F-ANA at 1 2 3 9 11 12 14 15`, “mean fluorescence intensity” read 78.9 a.u.
`2'F-ANA at 1 3 4 5 6 8 9 10 13 14`: “mean fluorescence intensity” 82.9 a.u.
Under “mean fluorescence intensity”, `2'F-ANA at 4 5 7 9 10 11 12 13 15` is recorded as 48.8 a.u.
`2'F-ANA at 3 4 6 8 9 10 12 14`: “mean fluorescence intensity” 200 a.u.
`2'F-ANA at 1 4 6 9 10`: “mean fluorescence intensity” 57 a.u.
Under “mean fluorescence intensity”, `2'F-ANA at 4 5 6 7 9 12` is recorded as 149 a.u.
`2'F-ANA at 1 2 4 6 7 15` — result for “mean fluorescence intensity”: 143 a.u.
`2'F-ANA at 1 3 9 12 14 15` — result for “mean fluorescence intensity”: 117 a.u.
Under “mean fluorescence intensity”, `2'F-ANA at 2 3 4 5 7 12 15` is recorded as 188 a.u.
`2'F-ANA at 6 7 8 9 10 11 12 13 14`: “mean fluorescence intensity” 102 a.u.
`2'F-ANA at 1 2 9 10 11 13 14 15`: “mean fluorescence intensity” 50 a.u.
For `2'F-ANA at 2 3 7 8 10`, “mean fluorescence intensity” read 504 a.u.
For `2'F-ANA at 2 3 4 5 9 11 14`, “mean fluorescence intensity” read 84.7 a.u.
For `2'F-ANA at 1 2 3 4 5 7 9 10 12 15`, “mean fluorescence intensity” read 70.6 a.u.
Under “mean fluorescence intensity”, `2'F-ANA at 2 3 4 6 11 12 14` is recorded as 269 a.u.
For `2'F-ANA at 1 3 5 6 10 14 15`, “mean fluorescence intensity” read 46.9 a.u.
Under “mean fluorescence intensity”, `2'F-ANA at 1 3 5 7 10 15` is recorded as 50.9 a.u.
Under “mean fluorescence intensity”, `2'F-ANA at 1 2 5 6 10 12 13 14 15` is recorded as 48.2 a.u.

A few entries again (set 4):
For `2'F-ANA at 1 2 3 4 5 7 9 10 12 15`, “mean fluorescence intensity” read 70.6 a.u.
Under “mean fluorescence intensity”, `2'F-ANA at 2 3 4 6 11 12 14` is recorded as 269 a.u.
For `2'F-ANA at 1 3 5 6 10 14 15`, “mean fluorescence intensity” read 46.9 a.u.
Under “mean fluorescence intensity”, `2'F-ANA at 1 3 5 7 10 15` is recorded as 50.9 a.u.
Under “mean fluorescence intensity”, `2'F-ANA at 1 2 5 6 10 12 13 14 15` is recorded as 48.2 a.u.
